# Published values pooled from the literature.
# Numbered parts are unrelated; each lists some results of a single study.
# Chain of UniProt Q9NRM7 (whole entry, looked up): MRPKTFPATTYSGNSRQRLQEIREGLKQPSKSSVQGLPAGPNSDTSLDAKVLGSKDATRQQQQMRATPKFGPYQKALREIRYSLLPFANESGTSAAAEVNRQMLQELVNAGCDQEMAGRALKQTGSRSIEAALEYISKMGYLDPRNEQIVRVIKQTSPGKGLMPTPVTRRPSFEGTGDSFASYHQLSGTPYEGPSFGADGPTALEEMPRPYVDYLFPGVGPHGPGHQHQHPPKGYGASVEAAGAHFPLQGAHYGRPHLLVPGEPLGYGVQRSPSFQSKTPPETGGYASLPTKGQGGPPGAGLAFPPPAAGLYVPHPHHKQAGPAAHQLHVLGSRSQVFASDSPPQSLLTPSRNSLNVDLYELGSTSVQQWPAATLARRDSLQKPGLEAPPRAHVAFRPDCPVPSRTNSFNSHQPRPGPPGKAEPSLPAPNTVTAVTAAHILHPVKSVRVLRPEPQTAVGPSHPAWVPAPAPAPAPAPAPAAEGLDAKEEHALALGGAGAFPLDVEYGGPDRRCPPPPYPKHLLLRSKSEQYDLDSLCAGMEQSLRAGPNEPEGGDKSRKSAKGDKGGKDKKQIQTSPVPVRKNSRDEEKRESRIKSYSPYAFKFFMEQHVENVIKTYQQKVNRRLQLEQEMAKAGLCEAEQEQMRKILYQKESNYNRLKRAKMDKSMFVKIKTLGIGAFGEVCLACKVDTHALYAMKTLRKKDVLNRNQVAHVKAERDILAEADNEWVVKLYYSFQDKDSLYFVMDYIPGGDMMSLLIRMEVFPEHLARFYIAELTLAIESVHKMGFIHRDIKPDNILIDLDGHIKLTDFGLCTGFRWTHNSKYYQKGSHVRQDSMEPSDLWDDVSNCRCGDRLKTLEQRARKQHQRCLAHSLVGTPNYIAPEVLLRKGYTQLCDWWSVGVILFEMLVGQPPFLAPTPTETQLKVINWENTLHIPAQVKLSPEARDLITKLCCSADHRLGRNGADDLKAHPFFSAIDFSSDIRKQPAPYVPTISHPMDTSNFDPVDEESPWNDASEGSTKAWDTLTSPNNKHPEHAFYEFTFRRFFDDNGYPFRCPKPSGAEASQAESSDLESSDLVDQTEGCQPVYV
# Chain of UniProt Q9UM73 (whole entry, unmodified, looked up): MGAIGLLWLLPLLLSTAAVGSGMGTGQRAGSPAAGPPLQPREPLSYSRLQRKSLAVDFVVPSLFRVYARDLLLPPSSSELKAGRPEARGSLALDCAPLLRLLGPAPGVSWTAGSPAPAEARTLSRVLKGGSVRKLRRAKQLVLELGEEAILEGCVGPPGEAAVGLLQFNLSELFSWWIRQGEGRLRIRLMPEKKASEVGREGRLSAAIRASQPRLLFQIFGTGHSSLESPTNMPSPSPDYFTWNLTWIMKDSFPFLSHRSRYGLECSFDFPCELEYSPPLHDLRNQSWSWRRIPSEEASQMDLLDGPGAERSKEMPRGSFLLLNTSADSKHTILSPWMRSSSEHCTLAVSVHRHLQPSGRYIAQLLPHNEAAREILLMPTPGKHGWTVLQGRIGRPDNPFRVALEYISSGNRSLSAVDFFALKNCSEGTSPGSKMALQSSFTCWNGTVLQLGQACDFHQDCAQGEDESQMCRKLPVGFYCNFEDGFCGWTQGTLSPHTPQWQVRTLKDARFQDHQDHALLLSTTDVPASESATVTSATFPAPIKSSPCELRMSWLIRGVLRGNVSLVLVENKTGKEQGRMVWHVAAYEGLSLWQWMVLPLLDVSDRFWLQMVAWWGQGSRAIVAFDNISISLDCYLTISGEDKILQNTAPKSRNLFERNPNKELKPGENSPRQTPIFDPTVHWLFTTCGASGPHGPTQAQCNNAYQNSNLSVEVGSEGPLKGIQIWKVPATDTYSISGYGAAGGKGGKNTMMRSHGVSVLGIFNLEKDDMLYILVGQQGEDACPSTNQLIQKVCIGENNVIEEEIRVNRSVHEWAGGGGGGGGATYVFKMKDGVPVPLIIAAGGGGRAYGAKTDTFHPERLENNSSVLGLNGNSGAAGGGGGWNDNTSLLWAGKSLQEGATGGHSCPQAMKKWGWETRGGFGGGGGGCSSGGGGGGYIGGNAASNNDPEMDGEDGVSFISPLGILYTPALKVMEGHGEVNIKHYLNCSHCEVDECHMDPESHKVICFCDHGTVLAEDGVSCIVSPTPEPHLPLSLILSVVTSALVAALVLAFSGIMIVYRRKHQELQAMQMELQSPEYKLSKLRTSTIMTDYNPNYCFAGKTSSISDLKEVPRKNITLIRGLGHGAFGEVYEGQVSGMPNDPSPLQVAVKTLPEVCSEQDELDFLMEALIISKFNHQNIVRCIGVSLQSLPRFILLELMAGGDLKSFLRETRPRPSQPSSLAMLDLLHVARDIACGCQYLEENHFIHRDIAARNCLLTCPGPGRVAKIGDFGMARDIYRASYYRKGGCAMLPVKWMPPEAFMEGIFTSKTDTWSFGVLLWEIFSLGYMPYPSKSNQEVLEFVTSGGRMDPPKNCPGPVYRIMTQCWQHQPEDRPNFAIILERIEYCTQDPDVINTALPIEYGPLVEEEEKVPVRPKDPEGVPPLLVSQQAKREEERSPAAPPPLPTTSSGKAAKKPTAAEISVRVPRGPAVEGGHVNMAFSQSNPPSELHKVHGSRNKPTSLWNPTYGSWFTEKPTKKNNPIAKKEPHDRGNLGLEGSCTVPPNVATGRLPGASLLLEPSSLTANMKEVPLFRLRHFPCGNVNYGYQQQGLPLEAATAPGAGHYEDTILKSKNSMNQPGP
# Chain of UniProt Q07912 (whole entry, looked up): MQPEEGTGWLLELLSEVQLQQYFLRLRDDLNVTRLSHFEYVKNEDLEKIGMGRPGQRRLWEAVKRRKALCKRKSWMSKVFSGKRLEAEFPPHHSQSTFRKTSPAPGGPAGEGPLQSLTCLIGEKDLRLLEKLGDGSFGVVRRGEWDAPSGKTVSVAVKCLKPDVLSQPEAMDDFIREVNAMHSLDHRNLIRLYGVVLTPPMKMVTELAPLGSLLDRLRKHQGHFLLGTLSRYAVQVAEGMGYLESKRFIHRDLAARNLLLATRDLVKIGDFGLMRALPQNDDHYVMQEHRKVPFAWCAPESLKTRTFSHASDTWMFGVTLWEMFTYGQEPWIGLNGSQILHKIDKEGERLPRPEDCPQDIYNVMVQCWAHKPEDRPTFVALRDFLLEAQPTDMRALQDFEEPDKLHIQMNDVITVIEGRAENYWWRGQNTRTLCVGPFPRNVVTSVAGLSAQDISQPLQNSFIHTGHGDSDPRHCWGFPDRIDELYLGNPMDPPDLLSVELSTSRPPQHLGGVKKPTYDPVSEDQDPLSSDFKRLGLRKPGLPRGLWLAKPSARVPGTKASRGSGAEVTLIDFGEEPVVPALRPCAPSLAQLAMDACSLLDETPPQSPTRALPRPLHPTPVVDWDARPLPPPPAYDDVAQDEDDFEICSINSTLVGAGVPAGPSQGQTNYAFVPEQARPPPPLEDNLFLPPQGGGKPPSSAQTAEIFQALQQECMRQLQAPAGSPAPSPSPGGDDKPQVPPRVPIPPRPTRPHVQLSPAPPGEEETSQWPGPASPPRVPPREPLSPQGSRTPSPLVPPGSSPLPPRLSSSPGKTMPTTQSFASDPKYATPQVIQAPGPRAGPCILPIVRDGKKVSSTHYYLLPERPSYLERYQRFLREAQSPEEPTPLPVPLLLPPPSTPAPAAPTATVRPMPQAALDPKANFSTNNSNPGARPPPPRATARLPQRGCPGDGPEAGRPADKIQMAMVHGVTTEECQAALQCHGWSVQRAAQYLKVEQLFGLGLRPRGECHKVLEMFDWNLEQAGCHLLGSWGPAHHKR

# Set 1
# SMILES: C=CC(=O)N1CCC[C@@H](n2nc(-c3ccc(Oc4ccccc4)cc3)c3c(N)ncnc32)C1
# Mode: inhibitor
# Concentration: 1 µM
target,effect on,inhibition
"Mitogen-activated protein kinase 8 (MAPK8, Homo sapiens, UniProt P45983)",enzyme activity,6%
"Tyrosine-protein kinase receptor Tie-1 (TIE1, Homo sapiens, UniProt P35590)",enzyme activity,34%
"Beta-adrenergic receptor kinase 1 (GRK2, Homo sapiens, UniProt P25098)",enzyme activity,18%
"ALK tyrosine kinase receptor (ALK, Homo sapiens, UniProt Q9UM73, L1196M)",,0%
"Tyrosine-protein kinase Fes/Fps (FES, Homo sapiens, UniProt P07332)",enzyme activity,1%
"Ribosomal protein S6 kinase alpha-4, N-terminal kinase domain (RPS6KA4, Homo sapiens, UniProt O75676)",,8%
"Mitogen-activated protein kinase kinase kinase 1 (MAP3K1, Homo sapiens, UniProt Q13233)",enzyme activity,4%
"Serine/threonine-protein kinase 35 (STK35, Homo sapiens, UniProt Q8TDR2)",enzyme activity,46%
"Activated CDC42 kinase 1 (TNK2, Homo sapiens, UniProt Q07912)",enzyme activity,76%
"Phosphatidylinositol 4,5-bisphosphate 3-kinase catalytic subunit gamma isoform (PIK3CG, Homo sapiens, UniProt P48736)",enzyme activity,26%
"Mast/stem cell growth factor receptor Kit (KIT, Homo sapiens, UniProt P10721, D816H)",,29%

# Set 2
# Target: Serine/threonine-protein kinase Nek4 (NEK4, Homo sapiens, UniProt P51957)
# Chain of UniProt P51957 (whole entry, looked up): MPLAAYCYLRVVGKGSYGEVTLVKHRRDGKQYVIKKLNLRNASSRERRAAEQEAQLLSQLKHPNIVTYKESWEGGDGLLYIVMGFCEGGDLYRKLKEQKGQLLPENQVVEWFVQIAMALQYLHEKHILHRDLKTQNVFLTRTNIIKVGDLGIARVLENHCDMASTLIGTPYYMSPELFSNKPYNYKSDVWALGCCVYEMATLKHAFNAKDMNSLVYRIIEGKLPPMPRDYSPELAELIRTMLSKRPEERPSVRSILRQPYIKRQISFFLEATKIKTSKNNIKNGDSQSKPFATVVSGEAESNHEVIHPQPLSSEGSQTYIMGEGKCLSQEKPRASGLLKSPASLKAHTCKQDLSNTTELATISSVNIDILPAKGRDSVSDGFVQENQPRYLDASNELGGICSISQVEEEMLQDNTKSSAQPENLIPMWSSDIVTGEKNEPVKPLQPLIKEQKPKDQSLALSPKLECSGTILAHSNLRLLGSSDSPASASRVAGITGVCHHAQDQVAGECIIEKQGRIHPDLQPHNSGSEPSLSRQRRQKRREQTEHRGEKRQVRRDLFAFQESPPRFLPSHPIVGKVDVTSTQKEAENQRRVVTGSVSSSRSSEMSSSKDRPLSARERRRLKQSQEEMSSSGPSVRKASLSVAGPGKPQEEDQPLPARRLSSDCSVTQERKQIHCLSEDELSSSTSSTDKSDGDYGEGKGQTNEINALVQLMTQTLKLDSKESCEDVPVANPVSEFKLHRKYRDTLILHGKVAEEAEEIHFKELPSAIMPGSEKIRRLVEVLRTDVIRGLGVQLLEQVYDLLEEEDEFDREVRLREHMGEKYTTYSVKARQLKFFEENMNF
# Effect on: enzyme activity
# Mode: inhibitor
# Concentration: 0.5 µM
# Reference: control
SMILES,remaining activity
Cc1cc2ncc(-c3ccccc3)nc2cc1C,99.3%
O=c1cc(-c2cccc3c2Sc2ccccc2S3)oc(N2CCOCC2)c1,90%
CCN(CC)CCNC(=O)c1c(C)[nH]c(/C=C2\C(=O)Nc3ccc(F)cc32)c1C,94.1%
CCN(CC)C(=O)c1ccc(Nc2nc(OCC3CCCCC3)c3[nH]cnc3n2)cc1,87.9%
c1ccc(-c2cnc(Nc3ccc(OCCN4CCCC4)cc3)s2)cc1,96.1%
Ic1cccc(CSc2nnc(-c3ccncc3)o2)c1,93.7%
COc1cc2ncnc(Nc3cccc(Cl)c3)c2cc1OC,87.5%
COc1cc2c(cc1OC)-c1[nH]nc(Nc3cccc(F)c3)c1C2,101%
CN(C)C[C@H]1CCn2c(c(C3=C(c4cn(C)c5ccccc45)C(=O)NC3=O)c3ccccc32)C1,96.7%
O=C(NC(NC(=S)Nc1ccc(F)c([N+](=O)[O-])c1)C(Cl)(Cl)Cl)C(c1ccccc1)c1ccccc1 (stereo not drawn),87.8%
O=C(Nc1cccc(Nc2nccc(Nc3cccc(C(F)(F)F)c3)n2)c1)C1CC1,83.4%
N#C/C(=C\c1ccc(O)c(O)c1)C(=O)NCc1ccccc1,98.6%
C[C@@H]1CCN(C(=O)CC#N)C[C@@H]1N(C)c1ncnc2[nH]ccc12,96%
O=C1c2ccccc2-c2n[nH]c3cccc1c23,89.8%
c1ccc(-c2[nH]ncc2-c2ccnc3ccccc23)nc1,95.8%
CCOc1nc(NC(=O)Cc2cc(OC)ccc2OC)cc(N)c1C#N,93.2%
CCN(CC)CCNC(=O)c1c(C)[nH]c(/C=C2\C(=O)Nc3ccc(Cl)cc32)c1C,97%
N#Cc1c(NC(=O)c2cccc3ccccc23)sc2c1CCCC2,94.6%
Cc1nc2cc3nc(-c4cccs4)cnc3cc2n1C,95.2%
Cc1cn(-c2cc(NC(=O)c3ccc(C)c(Nc4nccc(-c5cccnc5)n4)c3)cc(C(F)(F)F)c2)cn1,102%
Cn1nc2c3c(cccc31)C(=O)c1ccccc1-2,89.8%
O=C1C(Cl)=C(N2C(=O)CCC2=O)C(=O)c2ccccc21,99.6%
Nc1cccc(-c2cc3c(Oc4cccc(O)c4)ncnc3[nH]2)c1,91.4%
COc1cc2ncnc(Nc3ccc(O)c(Br)c3)c2cc1OC,93.1%

# Set 3
# Structure (SMILES): CN1CCN(C(=O)c2ccc(NC(=O)Nc3ccc(N(C)c4ccnc(Nc5ccc(CS(C)(=O)=O)cc5)n4)cc3)cc2)CC1
# Concentration: 1 µM
target,method,measured,setting,reference,remaining binding [%]
"Phosphatidylinositol 5-phosphate 4-kinase type-2 gamma (PIP4K2C, Homo sapiens, UniProt Q8TBX8)",competitive binding panel,PIP5K2C,,vehicle,0.9
"Serine/threonine-protein kinase Nek9 (NEK9, Homo sapiens, UniProt Q8TD19)",competitive binding panel,,,vehicle,62
"Mitogen-activated protein kinase 9 (MAPK9, Homo sapiens, UniProt P45984)",competitive binding,,JNK2,,19
"Dual specificity tyrosine-phosphorylation-regulated kinase 1A (DYRK1A, Homo sapiens, UniProt Q13627)",competitive binding panel,,,vehicle,62
"cGMP-dependent protein kinase 2 (PRKG2, Homo sapiens, UniProt Q13237)",competitive binding panel,,,vehicle,100
"Serine/threonine-protein kinase LATS2 (LATS2, Homo sapiens, UniProt Q9NRM7)",competitive binding panel,,,vehicle,59
"Calcium/calmodulin-dependent protein kinase type IV (CAMK4, Homo sapiens, UniProt Q16566)",competitive binding panel,,,vehicle,100
"BDNF/NT-3 growth factors receptor (NTRK2, Homo sapiens, UniProt Q16620)",competitive binding,,TRKB,,11
"Receptor-type tyrosine-protein kinase FLT3 (FLT3, Homo sapiens, UniProt P36888)",competitive binding scan,,autoinhibited form,,7.3

# Set 4
# Target: 5-hydroxytryptamine receptor 2B (HTR2B, Homo sapiens, UniProt P41595)
# Chain of UniProt P41595 (whole entry, looked up): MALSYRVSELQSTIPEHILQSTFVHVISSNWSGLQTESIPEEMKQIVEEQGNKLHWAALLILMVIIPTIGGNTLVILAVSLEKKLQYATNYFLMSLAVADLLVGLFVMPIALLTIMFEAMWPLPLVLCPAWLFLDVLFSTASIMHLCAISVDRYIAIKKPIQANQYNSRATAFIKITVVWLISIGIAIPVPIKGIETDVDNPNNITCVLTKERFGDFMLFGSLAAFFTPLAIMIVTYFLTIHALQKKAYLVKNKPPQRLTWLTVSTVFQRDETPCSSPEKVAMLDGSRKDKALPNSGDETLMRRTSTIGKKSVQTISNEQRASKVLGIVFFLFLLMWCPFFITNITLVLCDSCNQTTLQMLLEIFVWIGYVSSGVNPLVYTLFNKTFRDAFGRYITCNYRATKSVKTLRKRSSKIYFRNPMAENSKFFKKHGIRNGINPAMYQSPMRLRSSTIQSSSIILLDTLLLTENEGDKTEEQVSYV
# Effect on: ligand displacement
# Concentration: 10 µM
Compound,inhibition
CN(C)C(=O)c1sc2nc(N3CCC(S(C)(=O)=O)CC3)cc(C(F)(F)F)c2c1N,47.5%
CC(=O)N1CCC(c2ccc(C(=O)NC3=NCCN3)cc2C(F)(F)F)CC1,-2.75%
COCc1nc2cnc3cc(-c4c(C)noc4C)c(OC[C@H]4CCNC4)cc3c2n1[C@H](C)c1ccccc1,-10.5%
N#CC1(c2ccccn2)CCN(Cc2cc(C(=O)N3CCCC3)c(=O)n3ccccc23)CC1,5.44%
Cc1cc2c(-c3ccco3)cnc(N[C@@H]3CCN(C)C[C@H]3C(=O)NC3CCCCC3)c2[nH]c1=O,9.16%
COCCOc1nc(-c2ccc(Cl)nc2)nc2c1CN(C(=O)c1ncn3ccccc13)CC2,3.25%
CN(c1ccnc(CNc2nc(Nc3ccc4c(c3)CC(=O)N4)ncc2C(F)(F)F)n1)S(C)(=O)=O,13.5%
C[C@@]1(Cc2ccc(C#N)cc2)C(=O)N(c2cc(Cl)cc(Cl)c2)c2ncc(C(=O)NC3(c4nc(C5CCC5)no4)CC3)n21,15.5%
CN1CCN(C(=O)C(C)(C)c2ccc(C(=O)Nc3cn4cc(-c5cc(C(C)(C)C)cc(C(C)(C)C)c5)ccc4n3)cc2)CC1,44.1%
COc1cc(C(=O)O)ncc1C#Cc1ccccc1NS(=O)(=O)c1cccc2c(N(C)C)ccnc12,34.9%
Nc1cnc(N2CCc3cc(S(=O)(=O)Nc4c(F)cc(Cl)cc4F)cc(N4CCCC4=O)c32)nc1,12.9%
CN1C(=O)[C@@H](N2CCc3cn(Cc4ccccc4)nc3C2=O)COc2ccccc21,12%
CCC(F)(F)c1cc(N2CCC(S(C)(=O)=O)CC2)nc2sc(C(N)=O)c(N)c12,13.4%
CCOc1cc(N2C3COCC2CN(C(=O)[C@H]2C[C@H](O)CN2c2ccc(Cl)cc2)C3)ccc1Cl,10.5%
CC[C@H](CC(=O)O)n1c(=O)c2ncccc2n(Cc2cn(C)c3cc(C)cc(C)c23)c1=O,5.53%
Nc1nc(NCc2ccccc2)nc(-c2cccc(CO)c2)n1,41.8%
CCOc1ccc(S(=O)(=O)Nc2ccc(Cl)cc2C#Cc2cnc(C(=O)O)cc2OC)c2ncccc12,8.83%
C[C@H](c1cccc(C#N)c1)n1cc(Cl)cc(C(N)=O)c1=N,12.3%
C[C@H](c1ccc(F)cc1)N(Cc1ccc(Cl)c(C(=O)O)c1)C(=O)c1cnc2ccccc2c1,21.8%
NS(=O)(=O)c1cc(NC(=O)Cc2ccccc2)ccc1Oc1cccc(Cl)c1,30.2%
CN1CCN(c2cnc3c(C4CCN(C(=O)c5ccc(OC(F)(F)F)cc5N)CC4)ncnc3c2)CC1,3.56%
CO[C@H]1CC[C@H](CNc2ccc(S(=O)(=O)NC(=O)c3ccc(N4CCN(CC5=C(c6ccc(Cl)cc6)CC(C)(C)CC5)CC4)cc3Oc3cnc4[nH]ccc4c3)cc2[N+](=O)[O-])CC1,3.54%
O=C(NNS(=O)(=O)c1ccccc1F)c1cc(F)cc(-c2ccccn2)c1,2.94%
CNC(=O)Nc1ccc2c(c1)CC[C@]21OC(=O)N(CC(=O)N(Cc2ccc(F)cc2)[C@@H](C)C(F)(F)F)C1=O,81.4%
C[C@H](c1ccc(F)cc1)N(Cc1cccc(C(=O)O)c1)C(=O)c1cnc2ccccc2c1,0.7%

# Repeated from above (set 2):
SMILES,remaining activity
N#Cc1c(NC(=O)c2cccc3ccccc23)sc2c1CCCC2,94.6%
CN(C)C[C@H]1CCn2c(c(C3=C(c4cn(C)c5ccccc45)C(=O)NC3=O)c3ccccc32)C1,96.7%
O=C1C(Cl)=C(N2C(=O)CCC2=O)C(=O)c2ccccc21,99.6%
O=c1cc(-c2cccc3c2Sc2ccccc2S3)oc(N2CCOCC2)c1,90%
Nc1cccc(-c2cc3c(Oc4cccc(O)c4)ncnc3[nH]2)c1,91.4%
O=C(Nc1cccc(Nc2nccc(Nc3cccc(C(F)(F)F)c3)n2)c1)C1CC1,83.4%
Cc1nc2cc3nc(-c4cccs4)cnc3cc2n1C,95.2%
CCN(CC)CCNC(=O)c1c(C)[nH]c(/C=C2\C(=O)Nc3ccc(F)cc32)c1C,94.1%
CCN(CC)C(=O)c1ccc(Nc2nc(OCC3CCCCC3)c3[nH]cnc3n2)cc1,87.9%
